{"data": "Measurements from different studies", "note": "Each line is one published result; not all experiments were run side by side. ± marks the error that the study gave. Where no end group is shown, it is not given here. [ ]: non-standard residue; d: D form."}
{"Substance": "O=C(Nc1ccc([N+](=O)[O-])cc1Cl)c1cc(Cl)ccc1O", "cell line": "NIH3T3 in SKOV/NIH microtissues", "assay": "fibroblast toxicity", "setting": "168 h, chronic toxicity, unit not given", "scale": "relative to: AC50 ATP over AC50 NanoLUC, day 7", "measurement": "therapeutic window", "result": 1.4}
{"Substance": "CC(C)[C@@H](CC[C@@H](C)[C@H]1CC[C@H]2[C@@H]3[C@H](O)C[C@H]4C[C@@H](NCCCNCCCCNCCCN)CC[C@]4(C)[C@H]3CC[C@]12C)OS(=O)(=O)O", "cell line": "MCF-10A 10 A.B2 expressing chimeric HER2", "assay": "proliferation and luminal apoptosis", "setting": "concentration not given, 3D culture, with: AP1510 1 µM", "measurement": "acinar morphogenesis", "result": "inhibited"}
{"Substance": "CCCCCCCCCCCCCCCCCCOc1ccccc1CC(=O)OCC[N+](CC)(CC)CC", "cell line": "four leukaemia cell lines", "measurement": "GI50", "result": "1290 nM"}
{"Substance": "VVI[dA] (D-Ala4)", "cell line": "PC-12", "assay": "protection from Aβ1–42 toxicity, MTT", "setting": "concentration not given, 6 h, Aβ to peptide ratio 1:10, with: Aβ1–42 2 µM", "scale": "relative to: untreated cells", "measurement": "cell viability", "result": "71.2%"}
{"Substance": "Cc1ccc(-n2c(SCC(=O)NNC(=O)Nc3ccccc3)nc3ccccc3c2=O)cc1", "cell line": "HCT-116", "assay": "annexin V-FITC/PI flow cytometry", "setting": "concentration not given, 24 h", "measurement": "necrotic cells", "result": "3.69%"}
{"Substance": "CCN1C(=O)/C(=C\\c2ccc(OC)cc2)S/C1=N/N=C(\\C)c1ccccn1", "cell line": "HEp-2", "assay": "cell growth or viability, SRB", "setting": "100 µg/mL, 48 h", "measurement": "inhibition", "result": "74.7%"}
{"Substance": "Cc1cc(C)cc(/C=C/[C@]2(O)CC[C@H]3[C@@H]4CCc5cc(O)ccc5[C@H]4CC[C@@]32C)c1", "cell line": "Ishikawa", "assay": "alkaline phosphatase induction, agonist", "setting": "concentration not given, 3 d", "scale": "relative to: estradiol", "measurement": "relative stimulatory activity", "result": "3.5 ± 0.7%"}
{"Substance": "V[dP]IA (D-Pro2)", "cell line": "PC-12", "assay": "protection from Aβ1–42 toxicity, MTT", "setting": "concentration not given, 6 h, Aβ to peptide ratio 1:5, with: Aβ1–42 2 µM", "scale": "relative to: untreated cells", "measurement": "cell viability", "result": "76%"}
{"Substance": "Oc1cc(O)c2cc(O)c(-c3cc(O)c(O)c(O)c3)[o+]c2c1", "cell line": "human podocytes", "assay": "RT-PCR or Western blot, item: VEGF-A165b and VEGF-A165a", "test system": "normal glucose", "setting": "10 µg/mL, 48 h", "measurement": "VEGF-A165b/VEGF-A165a ratio", "result": 2.96}
{"Substance": "COc1ccc(-c2nc3ccc(C4=NNC(=O)CC4C)cc3[nH]2)cc1 (centres unmarked)", "cell line": "hiPSC-derived 3D engineered cardiac tissue", "assay": "contractility", "test system": "serum-free medium", "setting": "concentration not given, 15 min, paced at 1 Hz", "scale": "relative to: time-matched vehicle", "measurement": "active force", "result": "increased"}
{"Substance": "C=CC(=O)Nc1cc2c(Nc3ccc(F)c(Cl)c3)ncnc2cc1C#CC(C)(C)N1CCN(C)CC1", "cell line": "NIH3T3 in HEY/NIH microtissues", "assay": "fibroblast toxicity", "setting": "chronic toxicity, unit not given", "scale": "relative to: AC50 ATP over AC50 NanoLUC, day 7", "measurement": "therapeutic window", "result": 6.03}
{"Substance": "[dI]VIA (D-Ile1)", "cell line": "PC-12", "assay": "protection from Aβ1–42 toxicity, MTT", "setting": "concentration not given, 6 h, Aβ to peptide ratio 1:10, with: Aβ1–42 2 µM", "scale": "relative to: untreated cells", "measurement": "cell viability", "result": "70%"}
{"Substance": "[68Ga+3].[Cl-].[Cl-].[Cl-]", "cell line": "BT-474", "assay": "radioligand cell binding", "setting": "concentration not given, 2 h, pH 7.0, 37 °C", "measurement": "specific binding", "result": "18.8 ± 2.5%"}
{"Substance": "[Aib][Aib]IA (Aib = CC(C)(N)C(=O)O)", "cell line": "PC-12", "assay": "protection from Aβ1–42 toxicity, MTT", "setting": "concentration not given, 6 h, Aβ to peptide ratio 1:10, with: Aβ1–42 2 µM", "scale": "relative to: untreated cells", "measurement": "cell viability", "result": "91.9%"}
{"Substance": "CCN(CC)CCNC(=O)c1ccc(NC(C)=O)cc1", "cell line": "human iPSC-derived cardiomyocytes", "assay": "calcium transient", "setting": "10 µM, 90 min, 5 donors", "scale": "relative to: vehicle", "measurement": "effect on decay-rise ratio", "result": "no effect"}
{"Substance": "COc1cc(CC=O)ccc1O", "cell line": "PC6-3", "assay": "tyrosine hydroxylase inhibition, HPLC", "scale": "relative to: DOPAL", "measurement": "intracellular level ratio", "result": "2 fold"}
{"Substance": "c1cncc(CN2CCC(n3ncc4c(N5CCOCC5)nc(-c5ccc6[nH]ccc6c5)nc43)CC2)c1", "cell line": "NIH3T3 in HEY/NIH microtissues", "assay": "fibroblast toxicity", "setting": "chronic toxicity, unit not given", "scale": "relative to: AC50 ATP over AC50 NanoLUC, day 7", "measurement": "therapeutic window", "result": 3.49}
{"Substance": "Oc1ccc(-c2nc(-c3ccncc3)c(-c3ccc(F)cc3)[nH]2)cc1", "cell line": "iPSC-derived intestinal progenitor cells", "assay": "item: ISX", "setting": "concentration not given", "scale": "relative to: DMSO", "measurement": "mRNA level", "result": "increased"}
{"Substance": "CC[C@@]1(O)C(=O)OCc2c1cc1n(c2=O)Cc2cc3c(CN(C)C)c(O)ccc3nc2-1", "cell line": "NIH3T3 in HEY/NIH microtissues", "assay": "fibroblast toxicity", "setting": "168 h, chronic toxicity, unit not given", "scale": "relative to: AC50 ATP over AC50 NanoLUC, day 7", "measurement": "therapeutic window", "result": 2.96}
{"Substance": "Cc1ccc(C)c(/C=C/[C@]2(O)CC[C@H]3[C@@H]4CCc5cc(O)ccc5[C@H]4CC[C@@]32C)c1", "cell line": "Ishikawa", "assay": "alkaline phosphatase induction, agonist", "setting": "concentration not given, 3 d", "scale": "relative to: estradiol", "measurement": "relative stimulatory activity", "result": "12.3%"}
{"Substance": "V[dF]IA (D-Phe2)", "cell line": "PC-12", "assay": "protection from Aβ1–42 toxicity, MTT", "setting": "concentration not given, 6 h, Aβ to peptide ratio 1:5, with: Aβ1–42 2 µM", "scale": "relative to: untreated cells", "measurement": "cell viability", "result": "71.5%"}
{"Substance": "Cc1[nH]c2ccccc2c1CCNCc1ccc(/C=C/C(=O)NO)cc1", "cell line": "GIST-T1 (KIT exon 11 mutant)", "assay": "item: phospho-KIT", "setting": "concentration not given, after compound washout", "measurement": "time to KIT signalling reactivation", "result": "≤ 24 h"}
{"Substance": "N#Cc1ccc(-c2csc(NN=Cc3c(F)cc(F)cc3F)n2)cc1", "cell line": "HCT-116", "assay": "colony formation", "setting": "5 µM, 24 h", "measurement": "inhibition", "result": "5 to 50%"}
{"Substance": "VCTGSC", "cell line": "B16-F10", "test system": "peptide", "setting": "2 µg coated per well, 30 to 60 min", "scale": "relative to: thrombospondin-coated wells", "measurement": "adherent cells", "result": "2%"}
{"Substance": "C[N+](C)(C)CCOC(N)=O", "cell line": "rat pancreatic acini", "setting": "1 µM, 15 min, with: PKCθ pseudosubstrate inhibitor 20 µM", "scale": "relative to: total", "measurement": "amylase secretion", "result": "7 ± 0.5%"}
{"Substance": "C#C[C@@]1(O)[C@@H](CO)O[C@@H](n2cc(Cl)c3c(N)ncnc32)[C@@H]1O", "cell line": "U-251", "assay": "cell growth or viability, SRB", "setting": "48 h", "measurement": "GI50", "result": "10 to 20 nM"}
{"Substance": "CC(=O)C1S/C(=N/N=C(\\C)c2ccccn2)NC1=O (centres unmarked)", "cell line": "HEp-2", "assay": "cell proliferation, SRB", "setting": "100 µg/mL, 48 h", "measurement": "inhibition", "result": "> 75%"}
{"Substance": "VV[dI]A (D-Ile3)", "cell line": "PC-12", "assay": "protection from Aβ1–42 toxicity, MTT", "setting": "concentration not given, 6 h, Aβ to peptide ratio 1:5, with: Aβ1–42 2 µM", "scale": "relative to: untreated cells", "measurement": "cell viability", "result": "70%"}
{"Substance": "CCC(CC)(CC)c1cc(-c2ccc(/C=C/C(=O)O)cc2Cl)ccc1O", "cell line": "KG-1", "assay": "cell proliferation", "setting": "5 µM, 48 h", "measurement": "inhibition", "result": "0%"}
{"Substance": "CCn1c(C)cs/c1=N/N=C(\\C)c1ccccn1", "cell line": "HEp-2", "assay": "cell growth or viability, SRB", "setting": "100 µg/mL, 48 h", "measurement": "inhibition", "result": "70.4%"}
{"Substance": "NC(=O)c1ccc(-c2nc(-c3ccc4c(c3)OCO4)c(-c3ccccn3)[nH]2)cc1", "cell line": "iPSC-derived intestinal progenitor cells", "assay": "item: villin 1", "setting": "concentration not given", "scale": "relative to: DMSO", "measurement": "mRNA level", "result": "increased"}
{"Substance": "CCn1c(-c2ccc(Br)cc2)cs/c1=N/N=C(\\C)c1ccccn1", "cell line": "HEp-2", "assay": "cell growth or viability, SRB", "setting": "100 µg/mL, 48 h", "measurement": "inhibition", "result": "58.9%"}
{"Substance": "VV[dL]A (D-Leu3)", "cell line": "PC-12", "assay": "protection from Aβ1–42 toxicity, MTT", "setting": "concentration not given, 6 h, Aβ to peptide ratio 1:5, with: Aβ1–42 2 µM", "scale": "relative to: untreated cells", "measurement": "cell viability", "result": "70.6%"}
{"Substance": "COC(=O)[C@]12CCC(C)(C)C[C@H]1[C@H]1C(=O)C=C3[C@@]4(C)C=C(C#N)C(=O)C(C)(C)[C@@H]4CC[C@@]3(C)[C@]1(C)CC2", "cell line": "NIH3T3 in SKOV/NIH microtissues", "assay": "fibroblast toxicity", "setting": "168 h, chronic toxicity, unit not given", "scale": "relative to: AC50 ATP over AC50 NanoLUC, day 7", "measurement": "therapeutic window", "result": 1.33}
{"Substance": "Cc1cccc(C=NNc2nc(-c3ccc(C#N)cc3)cs2)c1O", "cell line": "HCT-116", "assay": "colony formation", "setting": "10 µM, 24 h", "measurement": "inhibition", "result": "100%"}
{"Substance": "Cc1ccc(N(CC2=NCCN2)c2cccc(O)c2)cc1", "cell line": "hiPSC-derived 3D engineered cardiac tissue", "assay": "contractility", "test system": "serum-free medium", "setting": "concentration not given, 15 min, paced at 1 Hz", "scale": "relative to: time-matched vehicle", "measurement": "active force", "result": "decreased"}
{"Substance": "VV[dA]A (D-Ala3)", "cell line": "PC-12", "assay": "protection from Aβ1–42 toxicity, MTT", "setting": "concentration not given, 6 h, Aβ to peptide ratio 1:5, with: Aβ1–42 2 µM", "scale": "relative to: untreated cells", "measurement": "cell viability", "result": "70%"}
{"Substance": "PACAP-27", "cell line": "NCI-H838", "assay": "Fura-2 fluorescence, item: cytosolic Ca2+", "setting": "100 nM", "measurement": "time to return to baseline", "result": "~2 min"}
